# Measurements gathered from unrelated publications.
# A part holds a random share of what one study measured. Positions count from the first letter of the parent shown.

# Study 1
# Target: CCNE2, cyclin fold, Cln2 fusion (human)
# Technique: yeast growth competition, sequencing
# Sample: yeast
# Setting: strong parent motif
# Relative to: not given
# Reading: higher = stronger binding
# Parent: CDC25A docking peptide (human); PPHRRRLLFACSP
Variant,normalised enrichment score
P2E,1.51
R4H,0.526
P13L,1.2
P1V,0.991
L7R,1.3
R5F,1.24
P13R,0.827
F9P,0.679
H3Q,0.717
A10W,1.32
L7C,1.29
R5M,1.21
H3W,2.26
S12E,2.46
C11E,2.82
R6H,0.653
F9A,1.26
P13H,1.93
S12C,1.74
H3P,0.754
P13N,2.18
F9C,0.592
P1A,1.9
P13G,1.9
H3F,2.56

# Study 2
# Target: Microphthalmia-associated transcription factor, full length (MITF, Homo sapiens, UniProt O75030-10, residues 1-413)
# Technique: protein-binding microarray
# Form: double-stranded DNA, one strand shown
# Sample: in vitro
# Tested at: not given
# Setting: k-mer, scored over probes, only values ≥0.25
# Reading: higher = stronger binding
Sequence,E-score
CGTGATC,0.448
ACGTGAT,0.455
CACAAGA,0.301
CACGCGC,0.442
CGTGGCA,0.265
CACATGC,0.42
CACGCGG,0.425
CAGTCAC,0.308
CCCGTGC,0.388
CGTCACG,0.427
AGTCATC,0.251
AATCACG,0.435
ACGGGAT,0.312
ATGACAA,0.26
GTCATCA,0.265
ATGACCG,0.266
ACGCGAC,0.265
AACACGT,0.345
CATGACG,0.371
CGTGCCC,0.261
CACGCGA,0.409
GTGGTCA,0.34
CAAGTCA,0.25
CGGTCAC,0.324
GTGACTA,0.321

# Study 3
# Target: RING finger protein unkempt homolog, zinc fingers 1-6, GST-SBP tag (UNK, Homo sapiens, UniProt Q9C0B0, residues 30-357)
# Technique: RNA Bind-n-Seq
# Form: RNA
# Sample: in vitro
# Tested at: not given
# Setting: RNA with constant flanks, human and mouse sites, ends assumed
# Relative to: input RNA pool
# Reading: higher = stronger binding
# Constant ends, left off below: GGGAGUUCUACAGUCCGACGAUC … CAACAGAGGAUUGAGCAUCA
# Target sequence (chain): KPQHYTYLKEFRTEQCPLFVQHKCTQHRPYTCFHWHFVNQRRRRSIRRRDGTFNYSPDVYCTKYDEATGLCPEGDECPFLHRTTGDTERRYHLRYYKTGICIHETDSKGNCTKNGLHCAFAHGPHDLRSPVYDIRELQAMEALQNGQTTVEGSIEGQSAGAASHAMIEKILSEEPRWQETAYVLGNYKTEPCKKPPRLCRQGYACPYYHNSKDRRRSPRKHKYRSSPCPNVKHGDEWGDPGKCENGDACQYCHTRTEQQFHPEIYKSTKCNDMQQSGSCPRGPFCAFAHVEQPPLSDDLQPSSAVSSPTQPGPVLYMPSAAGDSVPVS
Sequence,bound/input enrichment
AAACAGCAAAAAUAUCCAACAAAAGUCUCCUUCAGUUCACAAGAGAUACCAUUAGCACCAGCUUCAUCAUACCAUUCAACAGAUGCAGACUUCACAGGCUAUGGUGGUUUCCAGGCUCCU,0.337 ratio
UUAUACCAAGUGGAGUAUGCCAUGGAAGCCAUUGGACAUGCAGGCACCUGUUUGGGGAUUUUAGCCAAUGAUGGAGUUUUGCUUGCAGCGGAGAGGCGCAACAUCCACAAGCUUCUUGAU,0.258 ratio
GGGAACCAGGUUCUGUGAGGCAUUCUACCUCACCAGCAAGCUCAGAAUACUCUUGGAAGUCAGUUGAGAAAUACAAAAAAUACGCUCACUCUGGAUCACGUGAUUUCAGUAGACAUGAGC,0.225 ratio
GCAUGCUUCCAGAAGAGUGGUGCAUCAGUGGUUGCUAUUCGAAAAUACAUCAUCCAUAAGUAUCCUUCUCUGGAGCUGGAGAGAAGGGGUUAUCUCCUUAAACAAGCACUGAAAAGAGAA,0.199 ratio
GAUUCUUACAUCAAAGCAGAUGAUCCUUCAUCUUACAUGGAAGUUGUCCAGGCUGCCAAUGCCAGCGGAAACUGGGAAGAAUUGGUGAAGUAUUUGCAGAUGGCACGCAAGAAGGCUCGA,0.137 ratio
UAUGCUUACCUUCUAAACGAUCAUGGCUAUUUGAUAUCUAAAUAUUUAAAACUUAACCAUGUCGUCACUGUGCACUGUGAAUGGACUUUGUAUUAUUUUUAAACCUUACACUCGAUGUAA,0.118 ratio
GAACCUGCUGAUGCAUCAGUAGUCCUGUGUAAAGAGCCCACCGCCUUUGAGGUUCCUCAGCUUAGUGUUUGUGGAGGUUCUGAAGACGCUGACAUAUUAUCCAGUUCAGGUCAUGACACA,0.234 ratio
UUUGACAAGGAUGGCAAUGGUUAUAUCAGUGCAGCAGAACUACGUCACGUCAUGACAAACUUAGGAGAAAAACUAACAGAUGAAGAAGUAGAUGAAAUGAUCAGAGAAGCAGAUAUUGAU,2.42 ratio
UGGUGGAGAUCCCCGCCCCUCAGGACUAUUGGGGCCCUGUAUUUGCCAUCUGCAUCUUCCUUUUUUCCUUCAUCAUCCCGGUUCUGAUCAUCUCUGUCUGCUACAGCCUCAUGAUUCGAC,0.361 ratio
GUCUCCAUUUUGUCAGCCAUGGAGCUCAUUUGGAACCUGUGUGAGAUUCUCUUUAUUGAAGUAGCACCAGCUGGCCCUCUCCUCCUUCACCUUCUUGACUGGGUCCGACUGCACGUGUGC,0.281 ratio
GAGGAAACAGACUACACUCCCGUUUGGUGCAUGCGCCAGGCAGGCCGUUACUUACCAGAGUUUAGGGAAACCCGGGCUGCCCAGGACUUUUUCAGCACGUGUCGCUCUCCUGAGGCCUGC,0.0892 ratio

# Study 4
# Target: ABI1, truncated, D143A, DHFR fusion (Arabidopsis thaliana)
# Technique: DHFR PCA, deep sequencing
# Sample: yeast
# Setting: methotrexate growth selection, single substitutions
# With: (+)-ABA 0.0091 µM
# Relative to: wild-type fitted maximum
# Reading: higher = stronger binding
# Parent: PYL1, truncated, DHFR fusion (Arabidopsis thaliana); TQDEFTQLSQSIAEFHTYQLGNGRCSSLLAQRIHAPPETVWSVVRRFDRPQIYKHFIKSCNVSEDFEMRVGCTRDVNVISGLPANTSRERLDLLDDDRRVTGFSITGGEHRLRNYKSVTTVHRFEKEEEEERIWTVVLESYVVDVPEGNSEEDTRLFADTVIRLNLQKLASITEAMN; partner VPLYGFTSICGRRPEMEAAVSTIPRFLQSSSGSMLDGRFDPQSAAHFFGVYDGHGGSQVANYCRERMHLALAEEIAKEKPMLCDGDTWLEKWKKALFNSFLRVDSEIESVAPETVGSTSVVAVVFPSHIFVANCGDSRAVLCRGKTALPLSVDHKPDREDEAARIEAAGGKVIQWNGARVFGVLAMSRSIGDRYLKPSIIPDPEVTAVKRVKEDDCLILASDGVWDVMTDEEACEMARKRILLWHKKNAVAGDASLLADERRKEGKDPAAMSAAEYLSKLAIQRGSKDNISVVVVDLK
Variant,relative binding score [%]
V161P,-3.77
R32H,7.43
S140H,-0.744
L138W,0.262
R132P,37.5
L164W,5.05
Y141H,3.72
N61F,22.7
F47H,14.6
R98S,-2.59
L94Q,-7.7
I162M,2.26
E38G,12.6
L164I,5.91
R90L,-3.21
E127P,51.6
V118R,54.5
A84Q,24.8

# For quick reference, copied from above (study 2):
Sequence,E-score
ATGACCG,0.266
ACGCGAC,0.265
AACACGT,0.345
CATGACG,0.371
CGTGCCC,0.261
CACGCGA,0.409
